Assay results collected from several papers.
Lines come from different studies, so protocols differ. ± marks the error that the study gave.

CN(C)C(CNC(=O)Nc1cc(C(F)(F)F)ccc1N1CCOCC1)c1ccncc1 (centres unmarked)
serum AST (mouse, serum; intraperitoneal, 360 mg/kg single dose): 1740 U/L

O=C(O)CC[C@H](NC(=O)O[C@@H](CCCCNC(=O)c1ccc([18F])cc1)C(=O)O)C(=O)O
tissue uptake (mouse, PC-3 PIP/flu xenografts, small intestine; 180 min): 0.08 ± 0.04 %ID/g

CC[C@@H]1C[C@]1(NC(=O)[C@@H]1C[C@@]2(CN1C(=O)[C@@H](NC(=O)[C@@H](NC(=O)[C@@H]1CCCCN1C(C)C)C1CCCCC1)C(C)(C)C)C(C)(C)C21CCC1)C(=O)NS(=O)(=O)N1CCCC1
subjects with nausea (healthy human; oral, 30 mg single dose): 0%

COC(=O)C[C@](O)(CCCC(C)(C)OC(C)=O)C(=O)O[C@@H]1C(OC)=C[C@]23CCCN2CCc2cc4c(cc2[C@H]13)OCO4
tissue concentration (CD1 mouse, heart; oral, 1 mg/kg, 8 h, below quantification limit 1.00 ng/mL): not detected

CSCC[C@H](NC(=O)CNC(=O)[C@H](CC(=O)O)NC(=O)[C@@H](NC(=O)[C@@H](NC(=O)[C@@H](NC(=O)CNC(=O)[C@H](CCC(N)=O)NC(=O)[C@H](CCSC)NC(=O)[C@H](CC(=O)O)NC(=O)[C@H](C)NC(=O)[C@H](C)NC(=O)[C@@H](NC(=O)[C@H](CO)NC(=O)[C@@H](N)CC(C)C)[C@@H](C)O)C(C)C)C(C)C)[C@@H](C)O)C(=O)N[C@@H](C)C(=O)N[C@@H](CO)C(=O)NCC(=O)N[C@@H](CC(C)C)C(=O)N[C@@H](CC(=O)O)C(=O)N[C@@H](CCCCN)C(=O)N[C@@H](CC(=O)O)C(=O)N[C@@H](Cc1ccc(O)cc1)C(=O)N[C@@H](CC(C)C)C(=O)N[C@@H](CCCCN)C(=O)N1CCC[C@H]1C(=O)N[C@@H](CC(=O)O)C(=O)N[C@@H](CC(=O)O)C(=O)O
half-life (human, serum; intravenous, 0.83 mg/kg, patients, infusion): 8.64 min

N=C(N)NCc1ccc(C(=O)NCCCC[C@H](NC(=O)CCCCCCC(=O)NCCCC[C@H](NC(=O)N[C@@H](CCC(=O)O)C(=O)O)C(=O)O)C(=O)O)cc1[211At]
tissue uptake (SCID mouse, PC-3 xenografts, bone; 1 h): 0.44 ± 0.1 %ID/g

CN(C)c1ccc(C(=O)NCCCCN2CCN(c3ccccc3O[11CH3])CC2)cc1
uptake ratio (male Sprague Dawley rat, kidney; iv, dose not given, with: cyclosporin A pretreatment; reference: cyclosporin A over untreated): 0.97

O=c1c(Br)c2oc3c(CN(Cc4ccccn4)Cc4ccccn4)c(O)ccc3nc-2c2ccccc12
excitation maximum (aqueous buffer; pH 7.0, metal-free): 530 nm

CN[C@](C)(C[18F])C(=O)O
tracer uptake (mouse, pancreas; 1 h, tumour-bearing): 32 %ID/g

O=C(O)CCC(NP(=O)(O)OCCC[C@@H](NC(=O)CCC(NC(=O)c1ccc([18F])cc1)C(=O)O)C(=O)O)C(=O)O (some centres unmarked)
tumour uptake (radioactivity; mouse, CWR22Rv1 xenograft, tumour; 2 h): 1.57%

CCCCCCCC(=O)OC[C@H](NC(=O)[C@H](CO)NC(=O)CN)C(=O)N[C@@H](Cc1ccccc1)C(=O)N[C@@H](CC(C)C)C(=O)N[C@@H](CO)C(=O)N1CCC[C@H]1C(=O)N[C@@H](CCC(=O)O)C(=O)N[C@@H](Cc1cnc[nH]1)C(=O)N[C@@H](CCC(N)=O)C(=O)N[C@@H](CCCNC(=N)N)C(=O)N[C@H](C(=O)N[C@@H](CCC(N)=O)C(=O)N[C@@H](CCC(N)=O)C(=O)N[C@@H](CCCNC(=N)N)C(=O)N[C@@H](CCCCN)C(=O)N[C@@H](CCC(=O)O)C(=O)N[C@@H](CO)C(=O)N[C@@H](CCCCN)C(=O)N[C@@H](CCCCN)C(=O)N1CCC[C@H]1C(=O)N1CCC[C@H]1C(=O)N[C@@H](C)C(=O)N[C@@H](CCCCN)C(=O)N[C@@H](CC(C)C)C(=O)N[C@@H](CCC(N)=O)C(=O)N1CCC[C@H]1C(=O)N[C@@H](CCCNC(=N)N)C(=O)O)C(C)C
volume of distribution (human, both sexes, plasma; intravenous infusion, 5 µg/kg/h, 65 min infusion): 0.078 ± 0.022 L/kg

CC[C@H](C)CCCCC(=O)N[C@@H](CCN)C(=O)N[C@H](C(=O)N[C@@H](CCN)C(=O)N[C@H]1CCNC(=O)[C@H]([C@@H](C)O)NC(=O)[C@H](CCN)NC(=O)[C@H](CCN)NC(=O)[C@H](CC(C)C)NC(=O)[C@@H](Cc2ccccc2)NC(=O)[C@H](CCN)NC1=O)[C@@H](C)O
urinary albumin excretion (ELISA; male CD-1 mouse, urine; subcutaneous, 12.5 mg/kg, 4 doses every 8 h, 24 h urine collection, nephrotoxicity): 284 µg/24 h

CC(=CCC(O)C(C)=Cc1csc(C)n1)CC=CC(C)C(O)C(C)C(=O)C(C)(C)C(O)CC(=O)O (centres unmarked)
AUC (human, plasma; intravenous infusion, 8.5 mg/m2 KOS-1584, 3 h infusion, cycle 1): 39.5 ± 16.3 ng·h/mL

CCc1c2c(nc3ccc(OC4OC(C(=O)O)C(O)C(O)C4O)cc13)-c1cc3c(c(=O)n1C2)COC(=O)C3(O)CC (centres unmarked)
AUC(0-inf) (human patients, plasma; intravenous, 32 mg/m^2 of parent drug): 853 ng·h/mL

CC[C@H](C)[C@H](NC(=O)[C@H](CCC(=O)O)NC(=O)[C@H](CCC(=O)O)NC(=O)[C@H](Cc1ccccc1)NC(=O)[C@H](CC(=O)O)NC(=O)CNC(=O)[C@H](CC(N)=O)NC(=O)CNC(=O)CNC(=O)CNC(=O)CNC(=O)[C@@H]1CCCN1C(=O)[C@H](CCCNC(=N)N)NC(=O)[C@@H]1CCCN1C(=O)[C@H](N)Cc1ccccc1)C(=O)N1CCC[C@H]1C(=O)N[C@@H](CCC(=O)O)C(=O)N[C@@H](CCC(=O)O)C(=O)N[C@@H](Cc1ccc(O)cc1)C(=O)N[C@@H](CC(C)C)C(=O)O
concentration (LC-MS/MS; human plasma; -20 to 25 °C, three freeze-thaw cycles, nominal 3.0 ng/mL): 2.99 ± 0.1 ng/mL

Cc1cc(Nc2nc(C[C@@]3(C(=O)O)CCN(Cc4cccc(Cl)c4F)[C@H](C)C3)cc(C)c2F)n[nH]1
clearance (beagle dog, plasma; intravenous, 1 mg/kg, single dose): 3.96 mL/min/kg

CC(C)C[C@H](NC(=O)CNC(=O)[C@H](C)NC(=O)[C@H](CCCNC(=N)N)NC(=O)[C@H](Cc1c[nH]cn1)NC(=O)[C@H](C)NC(=O)[C@@H](N)CC(=O)O)C(=O)N[C@@H](CCC(N)=O)C(=O)N[C@@H](Cc1ccccc1)C(=O)N1CCC[C@H]1C(=O)N[C@H](C(=O)NCC(=O)N[C@@H](CCCNC(=N)N)C(=O)N[C@H](C(=O)N[C@@H](Cc1c[nH]cn1)C(=O)N[C@@H](CCCNC(=N)N)C(=O)N[C@@H](CC(C)C)C(=O)N[C@@H](CC(C)C)C(=O)N[C@@H](CCCNC(=N)N)C(=O)N[C@@H](CCCCN)C(N)=O)C(C)C)C(C)C
HD10 (haemolysis; human red blood cells; 1 h): 32 µM

CC(C)[C@H](NC(=O)CNC(=O)[C@H](CCC(N)=O)NC(=O)[C@H](C)N)C(=O)O
subjects with adverse events (Probably drug-related; human; 20 mg/kg, 3 days, thrice daily dosing): 0%

CC1(C)C(=O)N(c2ccc(C#N)c(C(F)(F)F)c2)C(=S)N1c1ccc(C(N)=O)c(F)c1
AUC(0-inf) (human, male, plasma; oral, 160 mg, single dose, after high-fat meal): 270000 ± 40300 ng·h/mL

COc1ccc(C)cc1NC(=O)OC1CC2CCCC(C1)N2Cc1ccc(CC[18F])cc1 (centres unmarked)
tracer uptake (mouse, blood; 2 h, tumour-bearing): 0.59 %ID/g

CC(C)C[C@H](NC(=O)[C@H](Cc1ccccc1)NC(=O)CNC(=O)C/C=C(\F)[C@@H](N)Cc1ccc(O)cc1)C(=O)O
brain concentration (BALB/c mice, brain; intravenous, 50 mg/kg): 60 to 140 ng/mL

CC[C@H](C)[C@H](NC(=O)[C@H](CCCCN)NC(=O)CNC(=O)[C@H](CC(C)C)NC(=O)[C@@H](NC(=O)[C@H](C)NC(=O)[C@H](CCCCN)NC(=O)CNC(=O)[C@H](C)NC(=O)CNC(=O)[C@H](CCCCN)NC(=O)[C@H](CCSC)NC(=O)[C@H](CCCCN)NC(=O)[C@@H](NC(=O)[C@H](Cc1c[nH]c2ccccc12)NC(=O)[C@H](CC(C)C)NC(=O)[C@H](CCCCN)NC(=O)[C@H](CCCCN)NC(=O)[C@H](CC(C)C)NC(=O)[C@@H](N)CC(C)C)[C@@H](C)O)C(C)C)C(=O)N[C@@H](CCCCN)C(=O)NCC(=O)N[C@@H](CC(C)C)C(=O)N[C@@H](CC(C)C)C(=O)O
Stern-Volmer constant (acrylamide quenching; PC:cholesterol vesicles, 250 µM lipid; 2 µM, with: acrylamide): 1.77 ± 0.37 M⁻¹

COCCOCCOCCOc1ccc(/C=C/C2=[N+]3C(=C(c4cc(OC)cc(OC)c4)c4c(C)c(I)c(/C=C/c5ccc(OCCOCCOCCOC)cc5)n4[B-]3(F)F)C(C)=C2I)cc1
fluorescence quantum yield (dichloromethane; reference: methylene blue): 0.24

CC[C@H](C)C(=O)N1CCC(NC(=O)Nc2ccc(OC(F)(F)F)c(F)c2)CC1
subjects with limb injury TEAE (healthy volunteers; oral, 2 mg single dose): 0%

CCN(Cc1ccccc1)C(=O)CCc1nc(CN2CCN(C(=O)Cc3ccc(OC)c(OC)c3)CC2)no1
concentration (rat, kidney; intravenous, 1 mg/kg, 30 min, single dose): < 1.8 ng/g

CN(C)c1ccc(/N=N/c2ccccc2)cc1
pKa (UV-vis pH titration; methanol/water 1:3 v/v): 3.2

CC(C)C[C@H](NC(=O)[C@H](CCCCN)NC(=O)[C@H](CCC(=O)O)NC(=O)[C@H](C)NC(=O)[C@@H](NC(=O)[C@H](CCCCN)NC(=O)[C@H](CC(=O)O)NC(=O)[C@H](Cc1ccc(O)cc1)NC(=O)[C@H](Cc1ccccc1)NC(=O)[C@H](C)NC(=O)[C@H](CCCCN)NC(=O)[C@H](CC(C)C)NC(=O)[C@H](Cc1c[nH]c2ccccc12)NC(=O)[C@@H](N)CC(=O)O)C(C)C)C(=O)N[C@@H](CCCCN)C(=O)N[C@@H](CCC(=O)O)C(=O)N[C@@H](C)C(=O)N[C@@H](Cc1ccccc1)C(=O)N1CCC[C@H]1C(=O)N[C@@H](CC(=O)O)C(=O)N[C@@H](Cc1c[nH]c2ccccc12)C(=O)N[C@@H](C)C(=O)N[C@@H](CCCCN)C(=O)N[C@@H](C)C(=O)N[C@@H](C)C(=O)N[C@@H](Cc1ccc(O)cc1)C(=O)N[C@@H](CC(=O)O)C(=O)N[C@@H](CCCCN)C(=O)N[C@@H](C)C(=O)N[C@@H](C)C(=O)N[C@@H](CCC(=O)O)C(=O)N[C@@H](CCCCN)C(=O)N[C@@H](C)C(=O)N[C@@H](CCCCN)C(=O)N[C@@H](CCC(=O)O)C(=O)N[C@@H](C)C(=O)N[C@@H](C)C(=O)O
Cmax (cynomolgus monkey female, plasma; intravenous infusion, 25 mg/kg every other day, day 27): 436000 ng/mL

C/C=C/C=C/C/C=C/CCCCCCCc1cccc(O)c1O
tissue concentration (female Kunming mice, tumour-bearing, tumor; intravenous, 10 mg/kg, 4 h): 38800 ± 3130 ng/g

O=C([O-])C[N+]12CC(=O)[O][Re-2]1[O]P(=O)([O-])C2.[C-]#[O+].[C-]#[O+].[C-]#[O+] (centres unmarked)
isomer fraction at equilibrium (HPLC; aqueous solution; 1 d, pH 2, room temperature): 19%

For quick reference, copied from above:
O=C(O)CCC(NP(=O)(O)OCCC[C@@H](NC(=O)CCC(NC(=O)c1ccc([18F])cc1)C(=O)O)C(=O)O)C(=O)O (some centres unmarked)
tumour uptake (radioactivity; mouse, CWR22Rv1 xenograft, tumour; 2 h): 1.57%

CCc1c2c(nc3ccc(OC4OC(C(=O)O)C(O)C(O)C4O)cc13)-c1cc3c(c(=O)n1C2)COC(=O)C3(O)CC (centres unmarked)
AUC(0-inf) (human patients, plasma; intravenous, 32 mg/m^2 of parent drug): 853 ng·h/mL

COc1ccc(C)cc1NC(=O)OC1CC2CCCC(C1)N2Cc1ccc(CC[18F])cc1 (centres unmarked)
tracer uptake (mouse, blood; 2 h, tumour-bearing): 0.59 %ID/g
